Earlier results, collected from citations in different studies.
Lines come from different studies, so protocols differ. ± marks the error that the study gave.
BRD4 BD2: Bromodomain-containing protein 4, BD2 (BRD4, Homo sapiens, UniProt O60885)
BRD4 BD1: Bromodomain-containing protein 4, BD1 (BRD4, Homo sapiens, UniProt O60885)
MEP1A: Meprin A subunit alpha (MEP1A, Homo sapiens, UniProt Q16819)
Chain of UniProt Q16819 (whole entry, looked up): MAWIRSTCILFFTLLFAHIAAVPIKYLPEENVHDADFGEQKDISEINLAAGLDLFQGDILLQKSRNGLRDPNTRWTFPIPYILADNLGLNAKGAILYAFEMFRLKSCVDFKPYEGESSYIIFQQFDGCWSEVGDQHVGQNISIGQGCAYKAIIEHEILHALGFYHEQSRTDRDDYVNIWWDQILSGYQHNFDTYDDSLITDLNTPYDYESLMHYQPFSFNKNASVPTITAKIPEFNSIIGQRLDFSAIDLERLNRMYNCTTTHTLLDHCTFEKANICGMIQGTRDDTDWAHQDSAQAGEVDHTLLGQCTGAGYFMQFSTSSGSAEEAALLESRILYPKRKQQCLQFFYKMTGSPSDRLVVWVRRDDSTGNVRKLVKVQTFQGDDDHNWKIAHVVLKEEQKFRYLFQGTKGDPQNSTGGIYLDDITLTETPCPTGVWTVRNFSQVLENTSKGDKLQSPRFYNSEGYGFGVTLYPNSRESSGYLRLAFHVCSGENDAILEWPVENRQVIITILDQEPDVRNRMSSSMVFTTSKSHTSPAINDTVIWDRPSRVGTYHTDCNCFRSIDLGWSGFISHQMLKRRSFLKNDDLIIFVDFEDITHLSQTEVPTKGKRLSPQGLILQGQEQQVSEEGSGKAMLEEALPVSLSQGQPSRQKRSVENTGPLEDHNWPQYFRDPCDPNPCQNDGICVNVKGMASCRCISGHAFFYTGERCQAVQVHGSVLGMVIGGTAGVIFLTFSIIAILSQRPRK
Chain of UniProt P00383 (whole entry, looked up): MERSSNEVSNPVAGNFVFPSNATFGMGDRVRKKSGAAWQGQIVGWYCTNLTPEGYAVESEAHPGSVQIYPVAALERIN
Chain of UniProt P09874 (whole entry, looked up): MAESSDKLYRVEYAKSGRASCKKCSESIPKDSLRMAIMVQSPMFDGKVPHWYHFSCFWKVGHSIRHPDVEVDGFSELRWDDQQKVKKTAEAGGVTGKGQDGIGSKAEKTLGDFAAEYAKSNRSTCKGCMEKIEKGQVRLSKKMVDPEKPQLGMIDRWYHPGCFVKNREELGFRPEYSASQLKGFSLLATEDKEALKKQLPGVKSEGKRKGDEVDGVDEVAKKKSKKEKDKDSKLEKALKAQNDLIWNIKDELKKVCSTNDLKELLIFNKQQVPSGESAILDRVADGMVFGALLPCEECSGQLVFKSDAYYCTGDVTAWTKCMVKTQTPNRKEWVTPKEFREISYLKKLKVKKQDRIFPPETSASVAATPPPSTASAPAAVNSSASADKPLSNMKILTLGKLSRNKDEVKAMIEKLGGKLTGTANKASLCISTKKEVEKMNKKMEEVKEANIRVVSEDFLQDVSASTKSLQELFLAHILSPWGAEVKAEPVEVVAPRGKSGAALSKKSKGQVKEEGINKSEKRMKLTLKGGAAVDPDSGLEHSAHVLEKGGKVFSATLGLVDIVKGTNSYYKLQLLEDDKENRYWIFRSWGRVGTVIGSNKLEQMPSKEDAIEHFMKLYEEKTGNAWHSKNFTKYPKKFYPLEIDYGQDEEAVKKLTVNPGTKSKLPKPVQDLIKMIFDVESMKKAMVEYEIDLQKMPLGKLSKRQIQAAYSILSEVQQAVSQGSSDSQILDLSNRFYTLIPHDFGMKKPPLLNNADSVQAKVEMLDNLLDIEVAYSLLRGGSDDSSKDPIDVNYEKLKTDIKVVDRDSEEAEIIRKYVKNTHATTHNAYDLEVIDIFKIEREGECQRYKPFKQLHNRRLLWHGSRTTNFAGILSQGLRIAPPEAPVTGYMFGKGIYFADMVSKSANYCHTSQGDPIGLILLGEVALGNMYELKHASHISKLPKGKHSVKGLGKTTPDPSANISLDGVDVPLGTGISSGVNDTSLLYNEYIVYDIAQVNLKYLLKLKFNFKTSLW
Chain of UniProt Q9Y2I7 (whole entry, looked up): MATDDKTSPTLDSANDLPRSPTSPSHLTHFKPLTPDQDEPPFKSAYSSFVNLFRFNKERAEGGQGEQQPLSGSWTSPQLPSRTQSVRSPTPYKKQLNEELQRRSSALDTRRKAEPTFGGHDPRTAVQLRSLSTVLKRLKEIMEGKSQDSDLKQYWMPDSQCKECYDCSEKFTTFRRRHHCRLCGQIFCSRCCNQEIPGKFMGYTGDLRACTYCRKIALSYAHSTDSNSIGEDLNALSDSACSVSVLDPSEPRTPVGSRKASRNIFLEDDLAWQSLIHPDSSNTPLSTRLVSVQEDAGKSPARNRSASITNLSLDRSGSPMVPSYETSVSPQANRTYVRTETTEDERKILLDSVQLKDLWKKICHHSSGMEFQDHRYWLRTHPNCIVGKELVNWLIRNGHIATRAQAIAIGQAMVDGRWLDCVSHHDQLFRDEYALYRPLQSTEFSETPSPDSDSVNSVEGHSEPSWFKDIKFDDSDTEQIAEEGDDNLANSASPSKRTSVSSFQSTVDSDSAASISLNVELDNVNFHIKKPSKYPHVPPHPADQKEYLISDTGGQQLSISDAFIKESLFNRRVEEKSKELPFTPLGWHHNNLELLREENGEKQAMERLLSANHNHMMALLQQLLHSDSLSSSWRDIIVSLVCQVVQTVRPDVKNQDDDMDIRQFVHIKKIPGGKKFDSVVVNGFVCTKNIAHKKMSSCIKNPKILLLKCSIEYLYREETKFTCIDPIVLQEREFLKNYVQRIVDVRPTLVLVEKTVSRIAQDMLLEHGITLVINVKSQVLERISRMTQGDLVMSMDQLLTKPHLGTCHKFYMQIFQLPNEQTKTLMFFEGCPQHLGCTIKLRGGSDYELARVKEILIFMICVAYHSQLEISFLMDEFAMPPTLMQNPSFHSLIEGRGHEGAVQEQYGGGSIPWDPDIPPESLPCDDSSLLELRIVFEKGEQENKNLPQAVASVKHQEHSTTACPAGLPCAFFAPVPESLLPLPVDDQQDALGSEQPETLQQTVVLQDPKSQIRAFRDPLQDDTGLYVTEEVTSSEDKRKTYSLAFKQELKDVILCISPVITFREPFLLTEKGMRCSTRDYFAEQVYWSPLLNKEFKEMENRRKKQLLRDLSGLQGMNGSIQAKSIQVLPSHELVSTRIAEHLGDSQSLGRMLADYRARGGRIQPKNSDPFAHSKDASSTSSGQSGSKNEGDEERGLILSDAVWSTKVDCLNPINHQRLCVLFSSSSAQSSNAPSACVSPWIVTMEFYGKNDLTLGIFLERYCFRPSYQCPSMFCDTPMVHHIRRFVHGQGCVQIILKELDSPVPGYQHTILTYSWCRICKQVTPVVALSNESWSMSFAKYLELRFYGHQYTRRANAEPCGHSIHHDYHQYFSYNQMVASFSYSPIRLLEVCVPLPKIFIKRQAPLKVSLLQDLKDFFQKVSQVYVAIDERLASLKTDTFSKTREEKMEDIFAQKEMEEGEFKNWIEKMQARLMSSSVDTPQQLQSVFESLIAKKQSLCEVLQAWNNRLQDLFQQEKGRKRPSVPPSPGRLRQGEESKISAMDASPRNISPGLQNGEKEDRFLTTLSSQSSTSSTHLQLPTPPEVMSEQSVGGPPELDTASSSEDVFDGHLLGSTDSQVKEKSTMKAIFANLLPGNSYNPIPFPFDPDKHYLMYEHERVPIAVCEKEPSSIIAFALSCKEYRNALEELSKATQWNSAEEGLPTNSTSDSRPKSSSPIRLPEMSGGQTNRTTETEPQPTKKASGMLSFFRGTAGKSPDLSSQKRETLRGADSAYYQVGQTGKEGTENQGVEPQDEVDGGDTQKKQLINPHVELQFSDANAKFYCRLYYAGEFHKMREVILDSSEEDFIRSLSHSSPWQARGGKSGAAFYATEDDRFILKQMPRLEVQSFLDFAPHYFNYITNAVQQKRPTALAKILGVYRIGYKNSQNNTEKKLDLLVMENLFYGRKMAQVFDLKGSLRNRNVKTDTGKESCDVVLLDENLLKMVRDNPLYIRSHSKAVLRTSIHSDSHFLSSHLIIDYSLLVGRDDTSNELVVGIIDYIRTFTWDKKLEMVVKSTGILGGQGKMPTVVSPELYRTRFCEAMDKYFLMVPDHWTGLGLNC
Chain of UniProt P21397 (whole entry, looked up): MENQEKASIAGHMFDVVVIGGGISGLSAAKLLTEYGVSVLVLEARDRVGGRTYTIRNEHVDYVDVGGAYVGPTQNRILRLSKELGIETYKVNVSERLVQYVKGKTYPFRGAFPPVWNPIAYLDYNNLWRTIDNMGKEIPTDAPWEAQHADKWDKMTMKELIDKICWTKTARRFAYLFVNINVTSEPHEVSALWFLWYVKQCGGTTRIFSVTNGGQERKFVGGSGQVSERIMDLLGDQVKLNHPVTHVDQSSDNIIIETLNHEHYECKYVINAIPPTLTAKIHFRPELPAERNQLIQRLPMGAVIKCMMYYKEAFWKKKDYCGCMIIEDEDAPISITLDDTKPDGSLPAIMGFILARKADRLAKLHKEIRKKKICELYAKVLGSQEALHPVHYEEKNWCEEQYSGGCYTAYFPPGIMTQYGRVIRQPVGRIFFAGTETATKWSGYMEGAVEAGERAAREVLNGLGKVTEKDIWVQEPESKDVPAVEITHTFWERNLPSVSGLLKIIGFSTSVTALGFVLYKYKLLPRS
Chain of UniProt O14757 (whole entry, looked up): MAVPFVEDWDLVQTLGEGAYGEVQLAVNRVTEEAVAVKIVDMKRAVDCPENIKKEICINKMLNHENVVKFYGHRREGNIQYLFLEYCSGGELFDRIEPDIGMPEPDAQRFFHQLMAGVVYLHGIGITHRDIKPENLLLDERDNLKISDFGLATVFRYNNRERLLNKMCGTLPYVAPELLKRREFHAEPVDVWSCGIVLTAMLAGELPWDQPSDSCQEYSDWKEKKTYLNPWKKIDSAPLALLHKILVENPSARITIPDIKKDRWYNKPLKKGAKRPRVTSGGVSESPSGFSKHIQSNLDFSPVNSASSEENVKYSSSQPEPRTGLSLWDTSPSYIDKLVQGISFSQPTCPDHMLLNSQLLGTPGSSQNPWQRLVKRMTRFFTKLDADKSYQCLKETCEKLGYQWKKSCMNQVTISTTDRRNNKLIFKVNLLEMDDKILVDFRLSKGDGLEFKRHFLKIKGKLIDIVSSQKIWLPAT

| Structure (SMILES) | target or system | test | test system | setting | how to read | measurement | value |
| --- | --- | --- | --- | --- | --- | --- | --- |
| CC(C)c1ccc(CN2CCN(CC(=O)c3ccc4[nH]c(=O)[nH]c4c3)CC2)cc1 | DNA dC->dU-editing enzyme APOBEC-3A (Homo sapiens, UniProt P31941) |  |  |  |  | IC50 | 9 µM |
| Cc1cc2c(c(O)c1O)C(=O)c1c(O)cc(O)cc1C2=O | Amine oxidase [flavin-containing] A (MAOA, Homo sapiens, UniProt P21397) |  |  |  |  | IC50 | 5.35 ± 0.09 µM |
| CN(C)C/C=C/C(=O)Nc1ccc(C(=O)Nc2cccc(Nc3cc(-c4c[nH]c5ccccc45)ncn3)c2)cc1 | 1-phosphatidylinositol 3-phosphate 5-kinase (PIKFYVE, Homo sapiens, UniProt Q9Y2I7) | enzyme activity, inhibitor |  |  |  | IC50 | < 0.32 µM |
| COc1ccc(C(C)=O)c(OC(=O)/C=C/c2ccc(F)cc2)c1 | tyrosinase | inhibitor |  |  |  | IC50 | 8 µM |
| CC1C(=O)N(C)c2ccc(-c3ccc(Nc4cccc(S(=O)(=O)N(C)C)c4)cc3)nc2N1C1CCN(C)CC1 (stereo not drawn) | BRD4 BD2 | biochemical |  | bromodomain 2 |  | IC50 | < 0.05 µM |
| c1ccc2c(C3NCCc4c3[nH]c3ccccc43)c[nH]c2c1 (stereo not drawn) | COLO 320 ABCB1-resistant colon | cytotoxicity |  |  |  | IC50 | 13.6 µM |
| CC(=O)Cc1cc(-c2c(C)noc2C)cc(C(O)c2ccccc2)c1 (stereo not drawn) | BRD4 BD1 | biochemical |  | bromodomain 1 |  | IC50 | 0.371 µM |
| O=C(CCN(Cc1ccc(Cl)c(O)c1F)Cc1ccc(Cl)c(O)c1F)NO | MEP1A | enzyme activity, inhibitor |  |  |  | IC50 | 0.186 ± 0.001 µM |
| Cc1cc(-c2nc3sc4c(c3c(=O)[nH]2)CCN(C)C4)cc(C)c1O | BRD4 BD1 | biochemical |  | bromodomain 1 |  | IC50 | 0.43 µM |
| COc1ccc(O)c(-c2nnc(-c3cnc4c(F)cccc4c3O)s2)c1 | alpha-amylase | enzyme activity, inhibitor |  |  |  | IC50 | 0.02 ± 0.62 µM |
| Oc1ccc(-c2csc(N/N=C3/c4ccccc4-c4nc5ccccc5nc43)n2)cc1 | α-glucosidase |  |  |  |  | IC50 | 1.44 ± 0.08 µM |
| O=C(CCN(Cc1ccc2c(c1)OCO2)Cc1ccc2c(c1)OCO2)NO | MEP1A | enzyme activity, inhibitor |  |  |  | IC50 | 0.157 ± 0.001 µM |
| O=C(O)c1ccc2[nH]c(-c3ccc(OCC(O)COc4ccc(-c5nc6cc(C(=O)O)ccc6[nH]5)cc4)cc3)nc2c1 | Dihydrofolate reductase type 2 (Escherichia coli, UniProt P00383) |  |  |  |  | IC50 | 130 ± 11 µM |
| N#Cc1cnc(NC(=O)Nc2cc(Cl)ccc2OC2CCOC2)cn1 (stereo not drawn) | Serine/threonine-protein kinase Chk1 (CHEK1, Homo sapiens, UniProt O14757) | inhibitor |  |  |  | IC50 | 0.003 µM |
| COc1ccc(O)c(C(=O)OCC(C)(C)CC2=C(O)C(=O)c3ccccc3C2=O)c1 | alpha-glucosidase | inhibitor |  |  |  | IC50 | > 200 mg/L |
| CCc1nc2c(-c3ccc(Cl)cc3)nc3ccccc3c2c(=O)n1CC(=O)O | aldose reductase AKR1B1 |  |  |  |  | IC50 | 0.12 ± 0.001 µM |
| CC(=O)c1sc(N/N=C2/c3ccccc3-c3nc4cc(F)ccc4nc32)nc1C | α-glucosidase |  |  |  |  | IC50 | 0.982 ± 0.04 µM |
| O=C(CN(Cc1cccc(C(=O)O)c1)Cc1ccc2c(c1)OCO2)NO | MEP1A | enzyme activity, inhibitor |  |  |  | IC50 | 1.91 ± 0.07 µM |
| CNCc1ccc(-c2cc3cc(F)cc(C(N)=O)c3o2)cc1 | Poly [ADP-ribose] polymerase 1 (PARP1, Homo sapiens, UniProt P09874) | enzyme activity, inhibitor |  |  |  | IC50 | 0.0032 µM |
| COc1ccc(Nc2nc(Nc3ccc(OCC[18F])cc3)ncc2Br)cc1 |  |  | S180 tumour-bearing mice, tumor | intravenous, 60 min |  | tissue uptake | 3.23 ± 0.14 %ID/g |
| CC(C)(COC(=O)c1ccc2c(c1)OCO2)CC1=C(O)C(=O)c2ccccc2C1=O | alpha-glucosidase | inhibitor |  |  |  | IC50 | 72.5 ± 1 mg/L |
| Cc1cc(N=Nc2ccc3c(c2)CCC(=O)N3)c(N)cc1O | BRD4 BD2 | biochemical |  | bromodomain 2 |  | IC50 | 0.032 µM |
| Cc1onc(-c2ccc(F)cc2)c1C(=O)N[C@H](C(=O)Nc1cccc(C(N)=O)c1)c1ccc(OCc2ccccc2)cc1 | Genome polyprotein, NS2B-NS3 protease (dengue virus type 2, UniProt P29990) | protease activity, inhibitor |  | together with: substrate 50 µM |  | IC50 | 14 µM |
| COc1ccc(C(C)=O)c(OC(=O)/C=C/c2ccc(O)cc2)c1 | tyrosinase | inhibitor |  |  |  | IC50 | 2 µM |
| COc1cc2onc(C)c2cc1NS(=O)(=O)c1cc(Br)ccc1OC | BRD4 BD1 | biochemical |  | bromodomain 1 |  | IC50 | 0.082 µM |
| O=C(N/N=C/c1ccc(O)c(O)c1O)c1n[nH]c2ccccc12 | Pancreatic alpha-amylase (AMY2, Sus scrofa, UniProt P00690) |  |  |  | inhibition | IC50 | 0.4 ± 0.01 µM |
| Cc1ccc2occ(/C=N\Nc3nc(-c4cccc(Br)c4)cs3)c(=O)c2c1 | alpha-amylase | enzyme activity, inhibitor |  |  |  | IC50 | 2.19 ± 0.03 µM |

A few entries again:
| Structure (SMILES) | target or system | test | test system | setting | how to read | measurement | value |
| --- | --- | --- | --- | --- | --- | --- | --- |
| COc1ccc(C(C)=O)c(OC(=O)/C=C/c2ccc(O)cc2)c1 | tyrosinase | inhibitor |  |  |  | IC50 | 2 µM |
| COc1cc2onc(C)c2cc1NS(=O)(=O)c1cc(Br)ccc1OC | BRD4 BD1 | biochemical |  | bromodomain 1 |  | IC50 | 0.082 µM |
| O=C(N/N=C/c1ccc(O)c(O)c1O)c1n[nH]c2ccccc12 | Pancreatic alpha-amylase (AMY2, Sus scrofa, UniProt P00690) |  |  |  | inhibition | IC50 | 0.4 ± 0.01 µM |
